# Results collected from several papers.
# A part holds a random share of what one study measured. “And” joins repeats or separate records; there may be more than shown.
# UniProt P49146, sequence (whole entry, looked up): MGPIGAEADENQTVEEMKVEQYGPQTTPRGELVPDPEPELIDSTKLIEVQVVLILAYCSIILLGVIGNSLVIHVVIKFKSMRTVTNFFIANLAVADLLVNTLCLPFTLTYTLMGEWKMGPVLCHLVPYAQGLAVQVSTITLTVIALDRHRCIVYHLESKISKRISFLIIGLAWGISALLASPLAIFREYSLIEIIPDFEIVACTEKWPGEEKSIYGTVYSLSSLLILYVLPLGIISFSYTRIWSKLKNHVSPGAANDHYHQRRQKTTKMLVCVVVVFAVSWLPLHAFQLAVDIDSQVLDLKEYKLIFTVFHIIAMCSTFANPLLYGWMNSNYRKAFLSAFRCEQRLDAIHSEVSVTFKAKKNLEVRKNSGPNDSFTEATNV
# UniProt P52333, sequence (whole entry, looked up): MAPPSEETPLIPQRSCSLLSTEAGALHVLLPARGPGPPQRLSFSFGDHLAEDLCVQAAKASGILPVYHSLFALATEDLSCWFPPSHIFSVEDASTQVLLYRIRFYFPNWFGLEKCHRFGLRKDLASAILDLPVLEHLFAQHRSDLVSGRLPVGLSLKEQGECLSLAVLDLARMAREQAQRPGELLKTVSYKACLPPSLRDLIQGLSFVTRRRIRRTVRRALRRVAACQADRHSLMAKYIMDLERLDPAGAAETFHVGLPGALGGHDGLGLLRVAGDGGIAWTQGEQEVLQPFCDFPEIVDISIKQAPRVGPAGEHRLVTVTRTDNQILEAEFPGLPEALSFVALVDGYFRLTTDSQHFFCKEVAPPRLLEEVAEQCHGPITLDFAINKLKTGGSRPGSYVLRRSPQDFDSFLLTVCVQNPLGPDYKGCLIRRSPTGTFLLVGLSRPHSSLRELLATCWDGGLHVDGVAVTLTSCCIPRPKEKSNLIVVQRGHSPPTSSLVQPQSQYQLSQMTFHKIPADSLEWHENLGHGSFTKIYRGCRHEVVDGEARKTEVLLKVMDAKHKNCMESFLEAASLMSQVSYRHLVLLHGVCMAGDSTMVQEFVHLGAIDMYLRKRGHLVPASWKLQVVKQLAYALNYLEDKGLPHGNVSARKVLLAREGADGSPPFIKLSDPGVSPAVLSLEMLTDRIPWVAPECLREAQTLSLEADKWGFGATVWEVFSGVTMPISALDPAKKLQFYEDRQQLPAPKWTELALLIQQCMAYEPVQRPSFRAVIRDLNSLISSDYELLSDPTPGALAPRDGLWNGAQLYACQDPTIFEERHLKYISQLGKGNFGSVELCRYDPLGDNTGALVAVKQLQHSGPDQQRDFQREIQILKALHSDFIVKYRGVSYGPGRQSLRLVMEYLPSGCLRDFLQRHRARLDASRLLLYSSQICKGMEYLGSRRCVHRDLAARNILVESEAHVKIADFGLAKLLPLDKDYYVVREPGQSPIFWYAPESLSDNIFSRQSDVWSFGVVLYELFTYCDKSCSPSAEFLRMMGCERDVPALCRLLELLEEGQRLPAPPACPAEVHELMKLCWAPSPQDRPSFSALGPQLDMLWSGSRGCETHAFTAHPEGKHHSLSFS
# UniProt Q15349, sequence (whole entry, looked up): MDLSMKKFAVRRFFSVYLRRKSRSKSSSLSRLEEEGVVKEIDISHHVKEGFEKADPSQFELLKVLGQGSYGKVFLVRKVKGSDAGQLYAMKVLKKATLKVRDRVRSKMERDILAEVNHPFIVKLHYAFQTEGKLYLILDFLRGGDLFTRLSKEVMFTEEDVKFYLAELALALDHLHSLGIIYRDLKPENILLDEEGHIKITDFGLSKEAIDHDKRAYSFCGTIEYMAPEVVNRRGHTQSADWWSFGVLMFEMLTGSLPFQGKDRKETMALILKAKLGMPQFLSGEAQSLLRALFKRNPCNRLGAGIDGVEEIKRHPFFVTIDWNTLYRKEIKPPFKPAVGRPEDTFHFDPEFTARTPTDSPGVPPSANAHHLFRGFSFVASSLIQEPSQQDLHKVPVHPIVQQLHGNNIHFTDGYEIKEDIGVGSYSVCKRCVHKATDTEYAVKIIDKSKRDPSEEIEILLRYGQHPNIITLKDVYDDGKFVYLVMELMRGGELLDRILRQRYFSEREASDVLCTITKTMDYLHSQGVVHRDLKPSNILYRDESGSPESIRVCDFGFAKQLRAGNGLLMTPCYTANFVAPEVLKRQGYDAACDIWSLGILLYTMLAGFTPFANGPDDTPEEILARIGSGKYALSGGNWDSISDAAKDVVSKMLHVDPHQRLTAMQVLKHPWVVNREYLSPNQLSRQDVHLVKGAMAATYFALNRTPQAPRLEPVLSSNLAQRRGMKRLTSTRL
# UniProt P06239, sequence (whole entry, looked up): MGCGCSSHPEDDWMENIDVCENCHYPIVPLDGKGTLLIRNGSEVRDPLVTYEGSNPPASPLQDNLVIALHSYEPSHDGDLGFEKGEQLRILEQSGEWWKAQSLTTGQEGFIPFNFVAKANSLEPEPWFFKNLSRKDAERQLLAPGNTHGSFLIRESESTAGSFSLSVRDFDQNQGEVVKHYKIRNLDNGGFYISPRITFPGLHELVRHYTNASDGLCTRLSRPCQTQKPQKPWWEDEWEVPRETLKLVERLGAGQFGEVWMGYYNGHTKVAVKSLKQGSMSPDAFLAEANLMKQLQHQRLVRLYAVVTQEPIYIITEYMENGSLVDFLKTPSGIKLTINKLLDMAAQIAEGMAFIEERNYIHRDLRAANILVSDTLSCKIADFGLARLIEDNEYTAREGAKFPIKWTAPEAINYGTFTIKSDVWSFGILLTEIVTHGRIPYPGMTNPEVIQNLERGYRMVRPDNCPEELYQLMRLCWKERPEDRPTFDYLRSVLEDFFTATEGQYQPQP
# UniProt Q15303, sequence (whole entry, looked up): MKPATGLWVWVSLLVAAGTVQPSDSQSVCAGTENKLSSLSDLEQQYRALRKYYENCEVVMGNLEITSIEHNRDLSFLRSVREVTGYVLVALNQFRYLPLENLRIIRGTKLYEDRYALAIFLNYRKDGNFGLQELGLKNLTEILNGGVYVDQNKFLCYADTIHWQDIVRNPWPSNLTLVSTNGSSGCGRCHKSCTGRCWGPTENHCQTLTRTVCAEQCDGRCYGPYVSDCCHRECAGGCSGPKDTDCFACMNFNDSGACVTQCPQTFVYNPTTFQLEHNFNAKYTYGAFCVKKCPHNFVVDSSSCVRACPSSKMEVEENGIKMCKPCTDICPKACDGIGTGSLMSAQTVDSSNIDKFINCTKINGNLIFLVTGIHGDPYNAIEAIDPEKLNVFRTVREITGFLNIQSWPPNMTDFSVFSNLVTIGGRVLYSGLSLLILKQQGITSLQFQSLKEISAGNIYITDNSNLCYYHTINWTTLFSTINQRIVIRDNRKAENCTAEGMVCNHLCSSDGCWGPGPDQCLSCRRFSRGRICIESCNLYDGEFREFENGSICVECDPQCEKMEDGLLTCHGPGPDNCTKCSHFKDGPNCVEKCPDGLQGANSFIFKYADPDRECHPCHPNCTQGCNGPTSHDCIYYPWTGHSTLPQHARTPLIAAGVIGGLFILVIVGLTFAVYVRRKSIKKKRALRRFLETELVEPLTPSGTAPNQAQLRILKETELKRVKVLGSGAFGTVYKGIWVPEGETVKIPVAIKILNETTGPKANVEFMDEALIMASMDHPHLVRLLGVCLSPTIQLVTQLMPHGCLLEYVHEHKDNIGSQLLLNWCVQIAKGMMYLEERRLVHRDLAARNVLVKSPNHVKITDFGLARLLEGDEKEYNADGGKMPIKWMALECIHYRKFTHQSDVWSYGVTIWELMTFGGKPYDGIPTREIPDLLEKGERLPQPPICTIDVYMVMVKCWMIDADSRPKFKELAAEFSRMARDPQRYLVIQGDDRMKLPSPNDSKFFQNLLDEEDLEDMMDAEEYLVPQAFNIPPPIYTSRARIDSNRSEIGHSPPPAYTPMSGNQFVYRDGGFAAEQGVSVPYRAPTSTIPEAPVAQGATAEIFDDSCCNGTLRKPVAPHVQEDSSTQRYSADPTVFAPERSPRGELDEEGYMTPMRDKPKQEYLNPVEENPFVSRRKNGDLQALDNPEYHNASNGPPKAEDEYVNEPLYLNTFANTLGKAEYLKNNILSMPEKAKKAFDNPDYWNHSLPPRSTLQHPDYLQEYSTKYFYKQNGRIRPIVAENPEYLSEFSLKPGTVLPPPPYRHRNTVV
# UniProt P51582, sequence (whole entry, looked up): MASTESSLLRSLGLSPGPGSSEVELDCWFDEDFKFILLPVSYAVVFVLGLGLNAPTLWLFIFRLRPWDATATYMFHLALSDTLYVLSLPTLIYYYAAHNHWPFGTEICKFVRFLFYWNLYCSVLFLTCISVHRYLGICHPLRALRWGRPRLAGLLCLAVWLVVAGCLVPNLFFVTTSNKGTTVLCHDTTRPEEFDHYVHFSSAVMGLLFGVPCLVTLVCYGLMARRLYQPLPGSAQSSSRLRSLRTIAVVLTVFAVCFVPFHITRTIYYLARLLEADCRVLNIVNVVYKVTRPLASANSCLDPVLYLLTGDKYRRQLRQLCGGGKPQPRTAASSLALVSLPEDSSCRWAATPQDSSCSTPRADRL
# UniProt P78356, sequence (whole entry, looked up): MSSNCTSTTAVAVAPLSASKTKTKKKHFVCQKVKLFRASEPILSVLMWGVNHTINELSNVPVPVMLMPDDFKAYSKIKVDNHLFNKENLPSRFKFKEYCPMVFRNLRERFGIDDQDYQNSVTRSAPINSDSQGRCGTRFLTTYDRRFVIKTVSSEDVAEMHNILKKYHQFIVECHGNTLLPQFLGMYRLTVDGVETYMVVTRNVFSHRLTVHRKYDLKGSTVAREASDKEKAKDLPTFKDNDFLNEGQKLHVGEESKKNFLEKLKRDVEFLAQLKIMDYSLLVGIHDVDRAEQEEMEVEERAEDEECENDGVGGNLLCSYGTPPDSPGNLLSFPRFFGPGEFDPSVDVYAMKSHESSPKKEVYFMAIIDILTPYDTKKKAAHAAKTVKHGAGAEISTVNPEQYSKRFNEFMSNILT

# Series 1 — SMILES: CCN(c1nc(N)c(C(=O)N=C(N)N)nc1Cl)C(C)C; read-out: β-arrestin recruitment; action: agonist; method: PRESTO-Tango; tested at: 10 µM; baseline: untreated
target,fold over basal
"Probable G-protein coupled receptor 152 (GPR152, Homo sapiens, UniProt Q8TDT2)",0.8
"NPY2R (Homo sapiens, UniProt P49146)",0.97
"SSTR1 (Homo sapiens, UniProt P30872)",4.62
"P2Y purinoceptor 4 (P2RY4, Homo sapiens, UniProt P51582)",0.92

# Series 2 — method: competition with immobilised ligand; tested at: 1 µM
# Compound: C[C@H](c1ccc(F)cc1)N(Cc1cccc(C(=O)O)c1)C(=O)c1cnc2ccccc2c1
target,test,remaining binding
"Myosin-IIIa (MYO3A, Homo sapiens, UniProt Q8NEV4)",binding,100%
"PIP4K2B (Homo sapiens, UniProt P78356)",cell-free assay,96%
"CDK14 (Homo sapiens, UniProt O94921)",cell-free assay,100%
"ERBB4 (Homo sapiens, UniProt Q15303)",cell-free assay,94%
"HIPK3 (Homo sapiens, UniProt Q9H422)",cell-free assay,100%

# Series 3 — cell line: mouse MPNST tumor cells; method: high-content nuclear imaging; refers to: cell number; tested at: 10 µM; time: 12 h; setting: mean of 2 replicates; baseline: plate mean; direction: higher = more cells
Compound,nuclei count [z-score]
N#C[C@@H]1CC[C@H](C#N)N1C(=O)CNC1(CO)CCCC1,0.565
O=C(O)c1ccc(C=C2SC(=S)N(c3cccc(C(F)(F)F)c3)C2=O)cc1,-1.15
NC(=O)n1c(O)c(C(=O)c2cccs2)c2cc(Cl)ccc21,-0.979
CC(=O)CC(c1ccccc1)c1c(O)c2ccccc2oc1=O (stereo not shown),0.27

# Series 4 — method: UPLC-MS/MS metabolomics; host: C57BL/6 CES1-/- mice, EL4 tumour; matrix: EL4 tumour; route: subcutaneous; dose: 0.3 mg/kg/day DON equivalent; time: 5 days; setting: normalised to tissue mass
# SMILES: CC(=O)N[C@@H](Cc1c[nH]c2ccccc12)C(=O)N[C@@H](CCC(=O)C=[N+]=[N-])C(=O)OC(C)C
test,peak intensity
refers to: S-methylcysteine,2.59e+06 a.u. and 1.48e+06 a.u. and 3e+06 a.u. and 1.69e+06 a.u. and 2.62e+06 a.u. and 2.67e+06 a.u.
refers to: adenine,2.49e+06 a.u. and 3.94e+06 a.u. and 2.95e+06 a.u. and 3.31e+06 a.u. and 3.33e+06 a.u. and 3.06e+06 a.u.
refers to: UDP-glucuronate,320000 a.u. and 307000 a.u. and 236000 a.u. and 223000 a.u. and 208000 a.u. and 166000 a.u.
refers to: hexose diphosphates,1.09e+07 a.u. and 6.33e+06 a.u. and 8.06e+06 a.u. and 4.89e+06 a.u. and 8.1e+06 a.u. and 6.16e+06 a.u.

# Series 5 — read-out: enzyme activity; action: inhibitor; tested at: 0.5 µM; baseline: control
# Compound: COc1ccc(S(=O)(=O)N(CCO)c2ccccc2CN(C)CC=Cc2ccc(Cl)cc2)cc1
target,remaining activity
"JAK3 (Homo sapiens, UniProt P52333)",97%
"ULK2 (Homo sapiens, UniProt Q8IYT8)",102%
"ACVR1B (Homo sapiens, UniProt P36896)",93.2%
"MAP3K5 (Homo sapiens, UniProt Q99683)",93.7%
"EPHA3 (Homo sapiens, UniProt P29320)",102%
"ULK3 (Homo sapiens, UniProt Q6PHR2)",106%
"CSNK1G3 (Homo sapiens, UniProt Q9Y6M4)",98.3%
"LCK (Homo sapiens, UniProt P06239)",95.5%
"CSNK1G2 (Homo sapiens, UniProt P78368)",103%
"TAOK2 (Homo sapiens, UniProt Q9UL54)",90.9%
"NEK6 (Homo sapiens, UniProt Q9HC98)",103%
"GSK3B (Homo sapiens, UniProt P49841)",102%
"WEE1 (Homo sapiens, UniProt P30291)",96%
"RPS6KA2 (Homo sapiens, UniProt Q15349)",99.2%

# A few entries again (series 5):
target,remaining activity
"CSNK1G2 (Homo sapiens, UniProt P78368)",103%
"ULK3 (Homo sapiens, UniProt Q6PHR2)",106%
